Measurements collected from several papers.
Compare with care: the assays were run in different laboratories. ± marks the error that the study gave.
CYP2C8: Cytochrome P450 2C8 (CYP2C8, Homo sapiens, UniProt P10632)
Chain of UniProt P24385 (whole entry, looked up): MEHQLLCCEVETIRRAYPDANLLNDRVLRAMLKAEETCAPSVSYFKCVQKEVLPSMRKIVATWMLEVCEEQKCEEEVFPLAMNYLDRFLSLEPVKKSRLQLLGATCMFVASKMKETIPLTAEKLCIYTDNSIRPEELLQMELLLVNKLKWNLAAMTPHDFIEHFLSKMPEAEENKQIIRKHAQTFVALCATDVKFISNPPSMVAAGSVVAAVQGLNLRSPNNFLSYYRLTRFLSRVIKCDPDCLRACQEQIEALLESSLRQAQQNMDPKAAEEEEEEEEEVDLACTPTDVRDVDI
Chain of UniProt P10632 (whole entry, looked up): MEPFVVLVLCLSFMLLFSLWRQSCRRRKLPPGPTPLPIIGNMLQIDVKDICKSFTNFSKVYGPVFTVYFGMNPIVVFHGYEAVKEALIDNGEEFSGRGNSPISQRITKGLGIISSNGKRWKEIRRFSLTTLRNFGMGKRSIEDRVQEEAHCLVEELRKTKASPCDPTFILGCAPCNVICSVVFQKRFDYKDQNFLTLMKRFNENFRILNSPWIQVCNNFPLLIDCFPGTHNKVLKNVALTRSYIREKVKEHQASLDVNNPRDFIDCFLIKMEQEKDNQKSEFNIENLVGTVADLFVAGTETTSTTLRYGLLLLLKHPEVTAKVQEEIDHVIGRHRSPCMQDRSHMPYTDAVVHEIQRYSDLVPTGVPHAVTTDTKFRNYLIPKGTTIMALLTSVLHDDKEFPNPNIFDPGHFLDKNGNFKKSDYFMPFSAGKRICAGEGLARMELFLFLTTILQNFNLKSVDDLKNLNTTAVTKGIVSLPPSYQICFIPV
Chain of UniProt Q01650 (whole entry, looked up): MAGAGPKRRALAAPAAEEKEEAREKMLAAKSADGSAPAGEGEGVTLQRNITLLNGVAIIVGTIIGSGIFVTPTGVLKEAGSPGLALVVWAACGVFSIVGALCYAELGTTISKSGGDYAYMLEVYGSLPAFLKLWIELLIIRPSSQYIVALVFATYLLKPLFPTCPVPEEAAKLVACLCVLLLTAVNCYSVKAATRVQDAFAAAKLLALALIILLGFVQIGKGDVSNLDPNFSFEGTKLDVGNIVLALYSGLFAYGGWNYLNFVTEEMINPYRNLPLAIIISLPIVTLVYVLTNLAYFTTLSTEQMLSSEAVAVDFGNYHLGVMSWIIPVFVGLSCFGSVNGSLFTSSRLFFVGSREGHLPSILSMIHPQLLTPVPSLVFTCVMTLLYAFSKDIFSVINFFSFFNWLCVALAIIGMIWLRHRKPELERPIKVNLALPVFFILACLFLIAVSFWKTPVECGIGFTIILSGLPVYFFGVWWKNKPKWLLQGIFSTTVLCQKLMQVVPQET
Chain of UniProt P30874 (whole entry, looked up): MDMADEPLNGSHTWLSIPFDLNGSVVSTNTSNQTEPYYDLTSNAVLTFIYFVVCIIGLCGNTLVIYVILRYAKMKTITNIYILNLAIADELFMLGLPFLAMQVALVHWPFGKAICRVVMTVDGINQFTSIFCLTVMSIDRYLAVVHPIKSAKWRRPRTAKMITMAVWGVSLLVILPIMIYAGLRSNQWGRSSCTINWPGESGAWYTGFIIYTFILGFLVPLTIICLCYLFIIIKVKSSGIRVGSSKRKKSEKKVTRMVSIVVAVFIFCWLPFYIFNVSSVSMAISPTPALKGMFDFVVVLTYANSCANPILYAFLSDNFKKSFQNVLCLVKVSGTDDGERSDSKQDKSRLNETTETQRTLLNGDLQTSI
Chain of UniProt Q9BV86 (whole entry, looked up): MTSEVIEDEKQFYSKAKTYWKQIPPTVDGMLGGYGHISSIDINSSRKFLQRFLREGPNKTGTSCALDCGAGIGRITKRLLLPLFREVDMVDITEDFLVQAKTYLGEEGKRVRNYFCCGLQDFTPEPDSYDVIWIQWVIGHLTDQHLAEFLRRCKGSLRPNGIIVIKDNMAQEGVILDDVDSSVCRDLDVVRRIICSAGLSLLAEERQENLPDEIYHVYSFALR
Chain of UniProt Q04760 (whole entry, looked up): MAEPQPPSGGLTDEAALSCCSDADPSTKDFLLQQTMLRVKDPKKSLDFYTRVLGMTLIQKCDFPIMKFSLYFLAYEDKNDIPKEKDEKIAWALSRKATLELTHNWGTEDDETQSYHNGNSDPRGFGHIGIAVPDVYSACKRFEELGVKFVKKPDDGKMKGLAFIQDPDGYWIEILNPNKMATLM
Chain of UniProt P30101 (whole entry, looked up): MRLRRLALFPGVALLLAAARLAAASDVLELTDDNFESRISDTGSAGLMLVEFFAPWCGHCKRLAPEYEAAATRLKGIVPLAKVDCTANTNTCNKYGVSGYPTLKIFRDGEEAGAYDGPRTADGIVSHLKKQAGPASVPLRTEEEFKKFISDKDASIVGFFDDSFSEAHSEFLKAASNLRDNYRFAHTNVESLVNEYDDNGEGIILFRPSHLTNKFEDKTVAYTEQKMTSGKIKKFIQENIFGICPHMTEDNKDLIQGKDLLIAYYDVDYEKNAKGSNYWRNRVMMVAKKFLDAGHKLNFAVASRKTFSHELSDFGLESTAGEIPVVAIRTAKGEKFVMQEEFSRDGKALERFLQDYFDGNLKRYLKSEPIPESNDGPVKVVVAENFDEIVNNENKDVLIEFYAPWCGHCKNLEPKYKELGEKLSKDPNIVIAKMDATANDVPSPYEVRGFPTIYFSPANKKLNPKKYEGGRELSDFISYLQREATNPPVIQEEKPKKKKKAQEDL
Chain of UniProt Q99873 (whole entry, looked up): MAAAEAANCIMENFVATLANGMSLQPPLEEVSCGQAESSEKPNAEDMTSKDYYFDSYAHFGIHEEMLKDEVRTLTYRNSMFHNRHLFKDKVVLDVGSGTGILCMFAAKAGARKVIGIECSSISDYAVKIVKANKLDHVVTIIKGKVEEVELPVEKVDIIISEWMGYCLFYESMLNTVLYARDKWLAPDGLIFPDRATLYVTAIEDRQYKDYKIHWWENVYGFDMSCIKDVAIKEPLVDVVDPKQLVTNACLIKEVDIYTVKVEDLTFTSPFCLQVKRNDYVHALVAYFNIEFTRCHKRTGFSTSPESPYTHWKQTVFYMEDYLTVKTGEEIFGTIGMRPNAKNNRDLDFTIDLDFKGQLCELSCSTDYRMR
Chain of UniProt P21396 (whole entry, looked up): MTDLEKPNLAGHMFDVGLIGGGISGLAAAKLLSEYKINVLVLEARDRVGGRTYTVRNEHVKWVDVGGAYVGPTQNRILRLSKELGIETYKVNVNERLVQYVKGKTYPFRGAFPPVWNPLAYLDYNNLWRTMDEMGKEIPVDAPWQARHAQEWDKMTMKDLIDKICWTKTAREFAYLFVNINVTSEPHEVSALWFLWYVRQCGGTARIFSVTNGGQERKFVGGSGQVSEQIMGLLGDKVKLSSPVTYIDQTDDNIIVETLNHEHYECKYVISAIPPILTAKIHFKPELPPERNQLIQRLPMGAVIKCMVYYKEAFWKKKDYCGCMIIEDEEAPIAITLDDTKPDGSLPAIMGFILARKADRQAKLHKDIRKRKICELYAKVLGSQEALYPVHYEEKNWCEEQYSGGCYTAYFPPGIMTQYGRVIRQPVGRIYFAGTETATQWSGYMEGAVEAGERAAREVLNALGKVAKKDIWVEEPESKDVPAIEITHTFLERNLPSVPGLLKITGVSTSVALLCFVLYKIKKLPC
Chain of UniProt O95166 (whole entry, looked up): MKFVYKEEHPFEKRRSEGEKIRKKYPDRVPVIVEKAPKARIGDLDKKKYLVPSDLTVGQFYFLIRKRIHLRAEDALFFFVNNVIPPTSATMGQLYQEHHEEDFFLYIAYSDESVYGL

Compound | target | test | system | setting | IC50 [µM]
CC1CC2(N=CCS2)C2(O)OC3CC4(C)C(CC3OC2O1)CC1OC12C4C(O)C(=O)C1(C)C(C3=CC(=O)OC3)CCC12O (centres unmarked) | Na+/K+-ATPase Oncopeltus fasciatus | – | neural tissue | – | 91
CC[C@H](C)[C@H](NC(=O)[C@H](CCCNC(=N)N)NC(=O)[C@H](CCCCN)NC(=O)[C@@H]1CCCN1C(=O)[C@H](CO)NC(C)=O)C(=O)N[C@@H](C)C(=O)N[C@@H](CCCCN)C(=O)N[C@@H](CCCNC(=N)N)C(=O)N[C@@H](CCCNC(=N)N)C(=O)N[C@@H](CO)C(N)=O | N-terminal Xaa-Pro-Lys N-methyltransferase 1 (Homo sapiens, UniProt Q9BV86) | methyltransferase activity, inhibitor, SAHH-coupled fluorescence | – | 60 min, 1% DMSO, double pin transfer, with: RCC1-6 peptide 3 µM, SAM 100 µM | 13.8
O=C(Nc1ccn(Cc2ccc(O)cc2C(F)(F)F)n1)c1c(F)cccc1F | Protein orai-3, with STIM1 (ORAI3, Homo sapiens, UniProt Q9BRQ5) | STIM1-mediated current, inhibitor, whole-cell patch clamp | HEK293 cells | estimated from single concentrations | ~3.8
N=C(N)NCCCC(N)C(=O)NCC(=O)NC(CCCNC(=N)NCCCSCC1OC(n2cnc3c(N)ncnc32)C(O)C1O)C(N)=O (centres unmarked) | PRMT1 (Homo sapiens, UniProt Q99873) | inhibitor | – | – | 15 ± 0.2
O=C1Nc2ccc(I)cc2C1=Cc1ccc(O)cc1 | Gamma-aminobutyric acid receptor-associated protein (Homo sapiens, UniProt O95166) | binding to K1 peptide, inhibitor, AlphaScreen | – | – | > 10
COc1ccc(C(=O)/C=C/c2ccc(O)cc2)c(O)c1CC=C(C)C | Maoa (Rattus norvegicus, UniProt P21396) | enzyme activity, inhibitor | – | with: serotonin | 3520
N=C(N)c1ccc(/N=N/Nc2ccc(C(=N)N)cc2)cc1 | DNA substrate (25 bp) | DNA binding, ethidium bromide displacement | – | – | 1.6 ± 0.1
C=CC(=O)Nc1cc(Nc2nccc(-c3cn(C)c4ccccc34)n2)c(OCC(F)(F)F)nc1N(C)CCN(C)C | CYP2C8 | enzyme activity, inhibitor | human, liver microsomes | – | > 100
NS(=O)(=O)c1ccc(/N=N/c2ccc(O)c3ncccc23)cc1 | GLO1 (Homo sapiens, UniProt Q04760) | enzyme activity, inhibitor | – | – | 1.36
N[C@@H](Cc1c[nH]c2ccc(OCc3ccccc3I)cc12)C(=O)O | SLC7A5 (Homo sapiens, UniProt Q01650) | transporter uptake, inhibitor, radiometric | – | – | 17
CC(C)NCc1ccc(C[C@@H]2NC(=O)[C@@H](Cc3c[nH]c4ccccc34)NC(=O)[C@H](Cc3ccccc3)NC(=O)[C@H](NC(=O)[C@@H](N)Cc3ccc(Cl)cc3)CSSC[C@@H](C(=O)N[C@@H](Cc3ccc4ccccc4c3)C(N)=O)NC(=O)[C@H](Cc3ccc(O)c(I)c3)NC2=O)cc1 | SSTR2 (Homo sapiens, UniProt P30874) | ligand displacement, radioligand | – | cell membranes | > 1
O=c1nc(NO)ccn1[C@@H]1O[C@H](CO)[C@@H](O)[C@H]1O | CYP2C8 | enzyme activity, inhibitor | human, liver microsomes | 20 min, pH 7.4 | > 100
CC[C@H](C)[C@H](NC(=O)[C@H](CC(C)C)NC(=O)[C@H](CCCNC(=N)N)NC(=O)c1ccc(CN2CCNCC2)c(O)c1)C(=O)N[C@@H](Cc1ccccc1)C(N)=O | G1/S-specific cyclin-D1, with CDK4 (Homo sapiens, UniProt P24385) | binding to cyclin groove, inhibitor, fluorescence polarization competition | – | – | 10.4
CN(C)C(=O)C1CN1S(=O)(=O)c1ccc(C2CCCCC2)cc1 (centres unmarked) | PDIA3 (Homo sapiens, UniProt P30101) | enzyme activity, inhibitor, absorbance | – | pH 7.6 | 12.8

Some of these lines once more:
Compound | target | test | system | setting | IC50 [µM]
C=CC(=O)Nc1cc(Nc2nccc(-c3cn(C)c4ccccc34)n2)c(OCC(F)(F)F)nc1N(C)CCN(C)C | CYP2C8 | enzyme activity, inhibitor | human, liver microsomes | – | > 100
NS(=O)(=O)c1ccc(/N=N/c2ccc(O)c3ncccc23)cc1 | GLO1 (Homo sapiens, UniProt Q04760) | enzyme activity, inhibitor | – | – | 1.36
